{"data": "Results collected from several papers", "note": "A part holds a random share of what one study measured."}
{"data": "Sample 1", "target": "Sal-like protein 4, full length isoform A (SALL4, Homo sapiens, UniProt Q9UJQ4, residues 1-1053)", "method": "universal PBM", "form": "double-stranded DNA, one strand shown", "matrix": "in vitro", "concentration": "600 nM", "notes": "8-mer, flanks averaged, mean of replicates", "reading": "higher = stronger binding", "chain of UniProt Q9UJQ4 (whole entry, looked up)": "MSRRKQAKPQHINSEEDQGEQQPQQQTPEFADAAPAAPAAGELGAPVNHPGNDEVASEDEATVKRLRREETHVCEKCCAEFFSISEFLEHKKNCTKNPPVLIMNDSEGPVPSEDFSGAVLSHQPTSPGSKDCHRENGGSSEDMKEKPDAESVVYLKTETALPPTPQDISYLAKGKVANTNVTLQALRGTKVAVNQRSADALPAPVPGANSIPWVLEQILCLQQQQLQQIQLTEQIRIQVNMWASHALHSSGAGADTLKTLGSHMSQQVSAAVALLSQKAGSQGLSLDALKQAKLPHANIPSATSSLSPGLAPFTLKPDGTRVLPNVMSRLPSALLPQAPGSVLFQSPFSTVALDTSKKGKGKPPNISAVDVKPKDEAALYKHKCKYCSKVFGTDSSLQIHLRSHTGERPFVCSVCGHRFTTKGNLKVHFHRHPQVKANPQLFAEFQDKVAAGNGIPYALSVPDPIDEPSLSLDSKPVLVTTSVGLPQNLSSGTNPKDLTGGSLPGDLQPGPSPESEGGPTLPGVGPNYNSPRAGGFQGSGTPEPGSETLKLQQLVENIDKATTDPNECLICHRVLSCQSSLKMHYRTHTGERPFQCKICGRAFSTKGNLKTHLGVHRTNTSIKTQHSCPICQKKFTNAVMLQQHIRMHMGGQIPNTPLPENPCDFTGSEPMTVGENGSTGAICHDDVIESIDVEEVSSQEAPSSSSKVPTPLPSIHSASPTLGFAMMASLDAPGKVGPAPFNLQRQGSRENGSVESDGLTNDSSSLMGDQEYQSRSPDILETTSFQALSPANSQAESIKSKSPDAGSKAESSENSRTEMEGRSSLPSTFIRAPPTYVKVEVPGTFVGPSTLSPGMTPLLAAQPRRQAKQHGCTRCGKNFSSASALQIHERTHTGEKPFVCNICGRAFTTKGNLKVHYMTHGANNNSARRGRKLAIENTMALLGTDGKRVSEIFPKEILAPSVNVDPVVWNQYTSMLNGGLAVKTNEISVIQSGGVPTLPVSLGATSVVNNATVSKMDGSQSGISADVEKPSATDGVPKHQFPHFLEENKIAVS"}
{"Oligonucleotide": "ATGTGTCC", "E-score": -0.0756}
{"Oligonucleotide": "ATAAGGTC", "E-score": 0.211}
{"Oligonucleotide": "AGAGGAAA", "E-score": 0.0975}
{"Oligonucleotide": "TAATAACA", "E-score": 0.395}
{"data": "Sample 2", "target": "Interferon regulatory factor 7, full length, phosphomimetic (IRF7, Homo sapiens, UniProt Q92985, residues 1-503, S471D/S472D/S475D/S476D/S477D/S483D/S484D/S487D)", "method": "protein-binding microarray", "form": "double-stranded DNA, one strand shown", "matrix": "in vitro", "concentration": "2200 nM top", "notes": "60-bp whole probe", "together with": "salmon DNA 0.4 mg/ml", "reference": "random background probes", "reading": "higher = stronger binding", "constant ends, left off below": "GCCTAGCAC … GTCTTGATTCGCTTGACGCTGCTG", "Construct (chain)": "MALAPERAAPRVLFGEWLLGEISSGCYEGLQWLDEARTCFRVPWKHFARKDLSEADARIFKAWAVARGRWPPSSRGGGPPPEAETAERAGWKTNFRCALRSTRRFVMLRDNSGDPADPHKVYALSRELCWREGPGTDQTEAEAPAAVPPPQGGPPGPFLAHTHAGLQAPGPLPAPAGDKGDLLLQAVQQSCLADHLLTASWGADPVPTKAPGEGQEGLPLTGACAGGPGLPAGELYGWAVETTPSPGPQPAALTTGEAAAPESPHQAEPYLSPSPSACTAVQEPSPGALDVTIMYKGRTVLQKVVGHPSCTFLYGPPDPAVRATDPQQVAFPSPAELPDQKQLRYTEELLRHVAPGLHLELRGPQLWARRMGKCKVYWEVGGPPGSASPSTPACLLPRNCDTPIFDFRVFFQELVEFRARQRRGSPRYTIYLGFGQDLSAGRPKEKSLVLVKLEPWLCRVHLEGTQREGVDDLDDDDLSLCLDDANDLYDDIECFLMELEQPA"}
{"Oligonucleotide": "TTTTGCTTTCTTTTATGCTCGTGCTAG", "fitted relative affinity [z-score]": 6.27}
{"Oligonucleotide": "TTAAGTTTCGGTATCGGTTAGTGCTAG", "fitted relative affinity [z-score]": 9.08}
{"Oligonucleotide": "GACGGTCTCTTTATCCTGACGTGCTAG", "fitted relative affinity [z-score]": 0.974}
{"Oligonucleotide": "GACGGTATCGACTTTCGGCACGTGCTA", "fitted relative affinity [z-score]": 1.53}
{"Oligonucleotide": "GAAATTCTCATTTCCAATTAGTGCTAG", "fitted relative affinity [z-score]": 1.56}
{"Oligonucleotide": "TTTGGTTTCGGACTGGGTTAGTGCTAG", "fitted relative affinity [z-score]": 4.97}
{"data": "Other studies, line by line", "F2 mature alpha-thrombin": "Prothrombin, mature alpha-thrombin (F2, Homo sapiens, UniProt P00734)"}
{"Molecule": "GGTTGGTGTGGTTGG (2'F-ANA at 1 6 7 8 10 11 12 13 15)", "target": "F2 mature alpha-thrombin", "test": "aptamer microarray, sandwich", "system": "DNA with 2'F-ANA, in vitro", "setting": "200 nM, whole 15-mer aptamer, many near background, together with: Cy3 exosite-II aptamer, 400 nM", "how to read": "higher = stronger binding", "quantity": "mean fluorescence intensity", "value": "88.3 a.u."}
{"Molecule": "PhoQ, residues 284 288 289 292 302 303 SIHLQL", "target": "PhoP, residues 12 14 15 18 19 STWGI (Escherichia coli, UniProt P23836)", "test": "Sort-seq, refers to: YFP reporter", "system": "E. coli", "setting": "PhoQ-PhoP variant library, together with: 10 µM Mg2+", "how to read": "reference: high Mg2+ state, higher = stronger signaling", "quantity": "fold induction", "value": 7.46}
{"Molecule": "GGTTGGTGTGGTTGG (2'F-ANA at 1 2 7 8 9 10 14)", "target": "F2 mature alpha-thrombin", "test": "aptamer microarray, sandwich", "system": "DNA with 2'F-ANA, in vitro", "setting": "200 nM, whole 15-mer aptamer, many near background, together with: Cy3 exosite-II aptamer, 400 nM", "how to read": "higher = stronger binding", "quantity": "mean fluorescence intensity", "value": "61.9 a.u."}
